{"data": "Measured values of several laboratories", "note": "Lines come from different studies, so protocols differ. ± marks the error that the study gave."}
{"Compound": "CCC(CC)OC1C=C(C(=O)OC(C)OC(=O)C(N)C(C)C)CC(NC(=N)N)C1NC(C)=O (mixture of isomers)", "system": "mouse (fasted), plasma", "conditions": "oral, 10 mg/kg", "Tmax [min]": "132 ± 66"}
{"Compound": "C/C(=N\\OCCCN1CCCCC1)c1ccc(C(F)(F)F)cc1", "system": "C57BL/6 mouse", "conditions": "intravenous, 5 mg/kg", "Tmax [min]": 4.8}
{"Compound": "COCC[C@H](NC(=O)[C@H](CC(C)C)N(C)C(=O)CNC(=O)[C@@H](NC(=O)[C@H](Cc1ccc(O)cc1)NC(=O)[C@H](CCCCNC(=O)COCCOCCNC(=O)COCCOCCNC(=O)CC[C@H](NC(=O)CCCCCCCCCCCCCCCCC(=O)O)C(=O)O)NC(=O)[C@@H](N)CC(=O)O)C(C)C)C(N)=O", "system": "mouse, blood", "conditions": "subcutaneous, 325 nmol/kg", "Tmax [min]": 120}
{"Compound": "Cc1ccc(NS(=O)(=O)c2c(C(=O)N3CCCCCC3)c(C)n(C)c2C)c(Cl)c1", "system": "ICR mouse, male, plasma", "conditions": "oral, dose not given", "Tmax [min]": "~12"}
{"Compound": "CC(C)(CCCC/C=C/CCCCCC(C)(C)C(=O)O)C(=O)O", "system": "ICR mouse, plasma", "conditions": "oral, 10 mg/kg", "Tmax [min]": 7.8}
{"Compound": "N#CC1(c2ccc3c(N)ncnn23)OC(COP(=O)(O)OP(=O)(O)OP(=O)(O)O)C(O)C1O (stereo not shown)", "test": "LC-MS/MS", "system": "CD-1 mouse male, liver", "conditions": "oral, 100 mg/kg of remdesivir", "Tmax [min]": 240}
{"Compound": "CCCCCCCC/C=C\\CCCCCCCCOP(O)(O)=S.N", "system": "mouse, male, irradiated", "conditions": "sc, dose not given, 15.6 Gy partial-body, dosed 24 h after", "Tmax [min]": 30}
{"Compound": "CCOP(=O)(OCC)OCCCCOC(=O)CC1=C(C)C(=Cc2ccc([S+](C)[O-])cc2)c2ccc(F)cc21 (stereo not shown)", "test": "HPLC", "system": "mouse, lung tissue", "conditions": "inhalation, 8 min exposure", "Tmax [min]": 0}
{"Compound": "O=C1CC(=O)N(c2ccccc2)c2cc(Cl)ccc2N1", "test": "dried blood spot LC-MS/MS", "system": "mouse C57BL/6, whole blood", "conditions": "oral, 30 mg/kg", "Tmax [min]": "120 to 180"}
{"Compound": "Cc1cc(Nc2nc(C[C@@]3(C(=O)O)CCN(Cc4cccc(Cl)c4F)[C@H](C)C3)cc(C)c2F)n[nH]1", "system": "BALB/c nude mouse, female, NCI-H446 xenograft, plasma", "conditions": "oral, 10 mg/kg", "Tmax [min]": "≤ 15"}
{"note": "A few entries again:"}
{"Compound": "CCCCCCCC/C=C\\CCCCCCCCOP(O)(O)=S.N", "system": "mouse, male, irradiated", "conditions": "sc, dose not given, 15.6 Gy partial-body, dosed 24 h after", "Tmax [min]": 30}
